Measured values pooled from the literature.
Compare with care: the assays were run in different laboratories. ± marks the error that the study gave.
USP3 ZnF-UBD domain: Ubiquitin carboxyl-terminal hydrolase 3, ZnF-UBD domain (USP3, Homo sapiens, UniProt Q9Y6I4)
UniProt Q9Y6I4, sequence (whole entry, looked up): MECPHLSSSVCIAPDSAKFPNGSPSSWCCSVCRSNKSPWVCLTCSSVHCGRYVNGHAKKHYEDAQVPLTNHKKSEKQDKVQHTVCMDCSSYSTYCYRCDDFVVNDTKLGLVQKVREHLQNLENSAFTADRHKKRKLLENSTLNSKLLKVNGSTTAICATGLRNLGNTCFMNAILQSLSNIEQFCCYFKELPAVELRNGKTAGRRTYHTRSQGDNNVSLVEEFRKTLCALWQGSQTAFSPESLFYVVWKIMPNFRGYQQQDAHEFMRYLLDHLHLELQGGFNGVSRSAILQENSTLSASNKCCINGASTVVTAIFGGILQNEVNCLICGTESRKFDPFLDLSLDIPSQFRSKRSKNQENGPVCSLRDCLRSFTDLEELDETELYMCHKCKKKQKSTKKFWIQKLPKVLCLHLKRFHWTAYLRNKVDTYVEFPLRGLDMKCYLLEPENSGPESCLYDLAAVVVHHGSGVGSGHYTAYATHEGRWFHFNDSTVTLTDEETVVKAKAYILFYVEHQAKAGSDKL
UniProt P08684, sequence (whole entry, looked up): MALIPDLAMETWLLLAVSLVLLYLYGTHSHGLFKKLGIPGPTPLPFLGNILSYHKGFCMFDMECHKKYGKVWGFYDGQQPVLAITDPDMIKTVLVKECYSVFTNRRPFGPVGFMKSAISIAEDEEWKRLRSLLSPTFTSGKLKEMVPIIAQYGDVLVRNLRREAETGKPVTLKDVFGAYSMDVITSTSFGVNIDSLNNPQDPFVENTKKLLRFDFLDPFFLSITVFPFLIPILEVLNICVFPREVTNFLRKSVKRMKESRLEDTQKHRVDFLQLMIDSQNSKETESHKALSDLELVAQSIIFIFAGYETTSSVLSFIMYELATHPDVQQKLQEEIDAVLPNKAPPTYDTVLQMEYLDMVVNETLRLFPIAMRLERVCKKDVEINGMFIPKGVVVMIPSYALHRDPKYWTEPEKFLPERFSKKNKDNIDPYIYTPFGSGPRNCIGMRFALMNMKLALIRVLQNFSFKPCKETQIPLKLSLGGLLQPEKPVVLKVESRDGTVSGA

SMILES	tested on	test	system	setting	how to read	endpoint	result
Nc1nc(N)c2nc(CNc3ccc(C(=O)NCCc4ccccc4)cc3)cnc2n1	THP-1-derived macrophages	MTT				CC50	25 to 50 µM
Cc1cc(N)c2c(OCC(C)(C)C(=O)NC(C)C)cccc2n1	Salmonella typhimurium	reverse mutation, plate incorporation	TA100	1000 µg/plate, without S9		mean revertant colonies	68 colonies/plate
Cc1ccc(S(=O)(=O)Nc2nc(N)c(-c3nc4ccccc4s3)c(-c3ccc(F)cc3)n2)cc1	FRhK-4	cytotoxicity		72 h		maximum non-toxic concentration	100 µg/mL
CCN1/C(=C/C(C)=O)Sc2ccc(F)cc21			cynomolgus monkey	oral, 10 mg/kg, 24 h post-dose		mean blood pressure	91 ± 3 mmHg
CN1CCN(c2cccc(-c3ccc4ncnc(Nc5ccc([N+](=O)[O-])c(C(F)(F)F)c5)c4c3)c2)CC1	Trypanosoma brucei		HepG2	48 h	reference: HepG2 CC50 over T. brucei GI50	selectivity index	1100
Nc1nc(NS(=O)(=O)c2ccccc2)nc(-c2ccccc2)c1-c1nc2ccccc2s1	FRhK-4	cytotoxicity		72 h		maximum non-toxic concentration	90 µg/mL
O=C(O)CSc1nnc(NC(=O)COc2ccccc2)s1	USP3 ZnF-UBD domain					Kd	219 µM
CN1CCN(c2cccc(-c3ccc4ncnc(Nc5ccc(Cl)c(C(F)(F)F)c5)c4c3)c2)CC1	Trypanosoma brucei		HepG2	48 h	reference: HepG2 CC50 over T. brucei GI50	selectivity index	48
CC(C)(C(=O)N1CCOc2c(C#N)cncc2C1)C(F)F		item: ventricular extrasystoles	healthy humans, both sexes	oral, 10 mg single dose		subjects with TEAE	16.7%
O=C(O)CCc1ccccc1OCc1ccccn1	USP3 ZnF-UBD domain					Kd	49.5 µM
O=C(COCC(F)F)Nc1ccc(C2CCCCC2)cc1		liver microsome stability	rat liver microsomes	1 µM		hepatic clearance	46 mL/min/kg
CCOc1c([C@H](C)n2nc(C)c3c(N)ncnc32)cc(Cl)c(F)c1[C@@H]1CNC(=O)C1		item: QRS ≤100 ms	previously treated B-cell malignancy	oral, 10 mg once daily, baseline below thresholds		ECG observations	100%
COC(=O)C1CCN(C(=O)c2ccc(NCc3cnc4nc(N)nc(N)c4n3)cn2)CC1	THP-1-derived macrophages	MTT				CC50	> 100 µM
O=C(CC1CCOCC1)Nc1ccc(C2CCCCC2)cc1			cryopreserved mouse hepatocytes	1 µM		hepatic clearance	79 mL/min/kg
C#CCN(Cc1cnc2nc(N)nc(N)c2n1)c1ccc(C(=O)N2CCC(C(=O)OC)CC2)cc1	THP-1-derived macrophages	MTT				CC50	> 100 µM
CC(C)C[C@H](NC(=O)C[C@H](O)[C@H](CC(C)C)NC(=O)[C@H](Cc1c[nH]cn1)NC(=O)CNC(=O)[C@@H](NC(=O)[C@H](C)NC(=O)[C@H](Cc1c[nH]c2ccccc12)NC(=O)[C@H](CCC(N)=O)NC(=O)[C@@H](Cc1ccccc1)NC(=O)COCCOCCNC(=O)CCC(C(=O)O)N1CCN(CC(=O)O)CCN(CC(=O)O)CCN(CC(=O)O)CC1)C(C)C)C(N)=O (stereo partly drawn) [lutetium-177 labelled]			female BALB/c nu/nu mice, bone	intravenous, 50 pmol, 1 h		tissue uptake	0.1 ± 0.08 %ID/g
Cc1cc(C(=O)NC(C)(C)COc2cccc3c2C(N)=NS(=O)(=O)N3)cc(C)n1	human peripheral blood lymphocytes	in vitro micronucleus test		1000 µg/mL, 4 h, with rat liver S9 activation, DMSO 0.4%		micronucleated binucleated cells	0.1%

SMILES	tested on	test	system	setting	how to read	endpoint	result
CC[C@H](CO)N(CCN(N=O)[C@H](CC)CO)N=O	Salmonella typhimurium	plate incorporation	TA1535, water	2500 µg/plate, without S9		revertant colonies per plate	29 ± 1
FC(F)(F)c1cc(Nc2ncnc3ccc(-c4cccc(N5CCOCC5)c4)cc23)ccc1Cl	Trypanosoma brucei		HepG2	48 h	reference: HepG2 CC50 over T. brucei GI50	selectivity index	580
CCOC(=O)C1CCN(C(=O)c2ccc(N(C)Cc3cnc4nc(N)nc(N)c4n3)cc2)CC1	THP-1-derived macrophages	MTT				CC50	50 to 100 µM
CN(CCC#N)C(=O)c1ccc(C2CCCCC2)cc1		liver microsome stability	cynomolgus liver microsomes	1 µM		hepatic clearance	40 mL/min/kg
Cc1cc(Nc2ccc(S(F)(F)(F)(F)F)cc2)n2nc(C(C)(F)F)nc2n1	Plasmodium falciparum	12-lead Holter ECG	human malaria patients	oral, 400 mg, QTc above 450 ms		patients with QTcF above threshold	10%
O=C(Cn1ccnc1)Nc1ccc(C2CCCCC2)cc1			cryopreserved rat hepatocytes	1 µM		hepatic clearance	25 mL/min/kg
O=C(Nc1nc2cccc(-c3ccc(CN4CCS(=O)(=O)CC4)cc3)n2n1)C1CC1		item: dyspepsia	human rheumatoid arthritis patients	oral, 300 mg once daily, 4 weeks, regardless of relatedness		treatment-emergent adverse events	0%
O=C(NCc1cc[nH]n1)c1ccc([C@H]2[C@@H](F)[C@@H](F)C[C@@H](F)[C@H]2F)cc1		liver microsome stability	human liver microsomes	1 µM, without NADPH		hepatic clearance	3.9 mL/min/kg
CC[C@H]1[C@@H](O)[C@@H]2[C@H](CC[C@]3(C)[C@@H]([C@H](C)CCNC(=O)NS(=O)(=O)c4ccc(C(C)(C)C)cc4)CC[C@@H]23)[C@@]2(C)CC[C@@H](O)C[C@@H]12	Cytochrome P450 3A4 (CYP3A4, Homo sapiens, UniProt P08684)		human, plasma	10 mg, day 1, compound alone	direction not given	lambda z geometric mean	0.0589 h⁻¹
O=[N+]([O-])c1ccc(Nc2ncnc3ccc(-c4cccc(N5CCOCC5)c4)cc23)cc1C(F)(F)F	Trypanosoma brucei		HepG2	48 h	reference: HepG2 CC50 over T. brucei GI50	selectivity index	> 4800
COc1ccc(CNC(=O)c2ccc(CNCc3cnc4nc(N)nc(N)c4n3)cc2)cc1OC	THP-1-derived macrophages	MTT				CC50	> 100 µM
CN(Cc1cccnc1)C(=O)c1ccc([C@H]2[C@@H](F)[C@@H](F)C[C@@H](F)[C@H]2F)cc1		hepatocyte stability	cryopreserved rat hepatocytes	1 µM		hepatic clearance	38 mL/min/kg
Cc1nc(-c2cnc(NC(C)C)n(C)c2=O)ccc1Oc1ccnc(-c2cnn(C)c2)c1	CYP3A4/5, human	inhibitor		direct, no preincubation		IC50	> 100 µM
CCOC(=O)C1CCCN1C(=O)c1ccc(NCc2cnc3nc(N)nc(N)c3n2)cc1 (stereo not drawn)	THP-1-derived macrophages	MTT				CC50	> 100 µM
c1cc(-c2ccc3ncnc(Nc4ncco4)c3c2)nc(N2CCOCC2)n1	Trypanosoma brucei		HepG2	48 h	reference: HepG2 CC50 over T. brucei GI50	selectivity index	110
CN(CCC#N)C(=O)c1ccc([C@H]2[C@@H](F)[C@@H](F)C[C@@H](F)[C@H]2F)cc1		hepatocyte stability	cryopreserved human hepatocytes	1 µM		hepatic clearance	6.2 mL/min/kg
